Assay results of several laboratories.
Every numbered part comes from another study and shows a few of its results, in no order.
Chain of UniProt O15294 (whole entry, looked up): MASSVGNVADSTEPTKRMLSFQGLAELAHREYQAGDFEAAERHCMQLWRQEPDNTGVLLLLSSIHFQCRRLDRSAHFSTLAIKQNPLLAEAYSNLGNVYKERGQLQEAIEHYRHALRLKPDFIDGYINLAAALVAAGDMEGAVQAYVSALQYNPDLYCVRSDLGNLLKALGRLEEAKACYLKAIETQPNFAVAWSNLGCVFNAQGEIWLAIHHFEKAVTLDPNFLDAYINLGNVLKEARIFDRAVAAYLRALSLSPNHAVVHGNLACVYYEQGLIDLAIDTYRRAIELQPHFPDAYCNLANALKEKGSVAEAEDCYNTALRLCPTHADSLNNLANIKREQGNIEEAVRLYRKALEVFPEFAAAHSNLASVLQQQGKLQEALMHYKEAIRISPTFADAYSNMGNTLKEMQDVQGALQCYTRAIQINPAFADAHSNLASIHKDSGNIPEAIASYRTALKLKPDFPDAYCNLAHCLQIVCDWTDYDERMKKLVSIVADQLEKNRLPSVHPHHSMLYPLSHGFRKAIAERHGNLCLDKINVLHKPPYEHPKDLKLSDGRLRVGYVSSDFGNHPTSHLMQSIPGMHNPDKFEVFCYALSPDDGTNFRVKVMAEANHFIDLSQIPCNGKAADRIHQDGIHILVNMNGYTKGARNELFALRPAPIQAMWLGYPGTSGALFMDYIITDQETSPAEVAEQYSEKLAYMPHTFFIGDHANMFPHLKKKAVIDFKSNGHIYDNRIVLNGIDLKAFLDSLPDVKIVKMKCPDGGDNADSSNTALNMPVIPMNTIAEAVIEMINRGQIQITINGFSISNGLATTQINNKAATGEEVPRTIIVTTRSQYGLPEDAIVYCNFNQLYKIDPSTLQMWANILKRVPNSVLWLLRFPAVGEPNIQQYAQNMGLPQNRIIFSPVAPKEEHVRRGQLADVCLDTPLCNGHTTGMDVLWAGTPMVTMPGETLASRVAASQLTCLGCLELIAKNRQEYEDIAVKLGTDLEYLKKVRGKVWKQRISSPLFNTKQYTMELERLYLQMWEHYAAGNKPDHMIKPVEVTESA

Set 1 — technique: RNA Bind-n-Seq; molecule type: RNA; medium: in vitro; tested at: 365 nM; reference: no-protein control; direction: higher = stronger binding
Target: RNA binding protein fox-1 homolog 2, RRM domain, GST-SBP tag (RBFOX2, Homo sapiens, UniProt O43251-10, residues 100-194)
Notes: natural RNA segment, single round, ends assumed
All sequences stand within: GGGAGUUCUACAGUCCGACGAUC … UGGAAUUCUCGGGUGCCAA
Construct (chain): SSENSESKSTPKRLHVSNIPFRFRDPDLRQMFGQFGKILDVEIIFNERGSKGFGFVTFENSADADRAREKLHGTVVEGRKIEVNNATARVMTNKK
Sequence | RBNS enrichment (R)
AUGUGGCCUAGUGAAACAUGGAUCUUGUUUAAAAGGCAUCUGAUUUUAUGCAGACACGUGUCUGAAAAAUUAAAAUCCAUUGUCCAAACUUCCAUACAUUAGGUAACGUC | 0.34
AGGACAAAAUAAACUGACUGAAGGGUUCGCUACUUCCAGUCACAACCUGUGUAUAGAAGAAAGAAAGGGUCAGUGAUCGAGAAUCAGACACUCUCGUUCAGGAGGAGGCU | 0.433
CGGAUAUAAAAUAAACCACGGGCCCGCCAUGGCGUUAGCCCUUCCUUUUGCAGUUGCGUCUGGGAAGGGGCCCCGGACUCCCUCGAGAGAAUGUGCUAGAGACAGCCCCU | 0.788
AACCUAGGAAGGGAACCAAGGAGGCUGGCCCUUGCUCCCUGACUCUUUCAGUGACCACCACCUCCCUAUGCAGAAGGGAUGUCAAUGUCAACAGCAGGGACUGAGACCUU | 0.688
UUGUAUAAUCAUGUAUCCUCUUGUGUGCUGGUAGAGAUUUUAAUCCUGAUUUUUCCAUAAAACAUGAGUAUUAAGAAAUAAUUCCUGGUUUGGAGAAACUGGAGAAAUCA | 0.393
CAAAAAAAGCAAUCAAAGUCUUACGUCAUAGAGGACCACCUUUUGGAUCAUAAAUUCUUUCCCUAUAACAUUCCUUCUCUGCCUCUCUAUGGCCCACUUUGACCACUAAC | 0.631
GCCCGUCACUUCAGUGUAGCAGAUGCCAGCAGGGUCCUGGAACAACUACAGAGGGAUUAUGACAGGUCCUUGAGCCGCCUAACACUGGAUGACAUCGAACGUUUGGCCAG | 0.439
CAUCUUUUUUAUUAUAAUUUAUUGCAAAUUUUUUUCUGAAUAAAUAUAUGUUGUGUGAAAAAGCAAAGUGUGAUUUUGGUGAGGAAGCACUCAGAAGGGAGGGCUUAUGU | 1.29

Set 2 — technique: RNA Bind-n-Seq; molecule type: RNA; medium: in vitro; tested at: 20 nM; notes: 6-mer, flanks averaged, single round; with: 150 mM LiCl; reference: input library; direction: higher = stronger binding
Target: TAR DNA-binding protein 43, full length, His tag (TARDBP, Homo sapiens, UniProt Q13148, residues 1-414)
Sequence | 6-mer enrichment (R)
UAAGCG | 0.926
UUCUUC | 0.95
ACUCCG | 0.899
CCUGUA | 0.949
CGAGUU | 0.939
ACCUGU | 0.888
UUGGUU | 1.22
UGAGGA | 1.06

Set 3 — technique: RNA Bind-n-Seq; molecule type: RNA; medium: in vitro; tested at: not given; reference: input RNA pool; direction: higher = stronger binding
Target: RING finger protein unkempt homolog, zinc fingers 1-6, GST-SBP tag (UNK, Homo sapiens, UniProt Q9C0B0, residues 30-357)
Notes: RNA with constant flanks, human and mouse sites, ends assumed
All sequences stand within: GGGAGUUCUACAGUCCGACGAUC … CAACAGAGGAUUGAGCAUCA
Target sequence (chain): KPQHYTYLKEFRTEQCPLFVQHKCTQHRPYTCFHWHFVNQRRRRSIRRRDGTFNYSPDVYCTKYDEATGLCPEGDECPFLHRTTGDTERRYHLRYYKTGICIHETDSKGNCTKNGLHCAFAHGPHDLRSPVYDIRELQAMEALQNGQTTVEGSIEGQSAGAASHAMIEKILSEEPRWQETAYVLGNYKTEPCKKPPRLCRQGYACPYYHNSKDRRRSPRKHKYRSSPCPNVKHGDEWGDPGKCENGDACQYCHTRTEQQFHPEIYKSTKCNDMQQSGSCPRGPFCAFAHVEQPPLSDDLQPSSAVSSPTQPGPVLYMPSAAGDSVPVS
Sequence | bound/input enrichment
AUCUAAACUUAGAUGGAGUUGGUCCAAUGAGGGAACAUCUGGGUUAUGCCUUUUUUAAAGUAGCUUUUAGGAACUGUCAGCAUGUUGUUGUUGAAGUGUGGAGCUGUAACUCUGCGUGGA | 2.64 ratio
GCUCUUGCUUAUGGAAUCUAUAAACAAGACCUUCCUGCCUUAGAAGAAAAACCAAGAAAUGUAGUUUUUGUAGAUAUGGGACAUUCUGCCUAUCAAGUUUCUGUAUGUGCAUUUAAUAAA | 2.68 ratio
CUCAAAGUGGAAGAGGUGGUCACUAAAUGCAAAAUAAAGAUGGAAGAUUUUGCUUUUAUUGCUAAUCCUUCUUCUACAGAGAUAUCUAGUAUUACUGGAAACAUUGAAUUGAAUCAACAG | 0.227 ratio
GGUCACACCAGGCCUACAAGGGCAGAAGUUAAAUAAAUUGAACUAGGGCACUAAACUGAAUAGUUGACAGUGUCAUUUUAUGUUGGAUUAUUAAUUACUGUUUUUCUUCCUGCUAUCUGU | 0.195 ratio
AUACCUCCAGAGAGCAGACUGUAUACUAUGCCAAAGCAUUCUCUAAAGACUUGCCAAGAGCUGUAGAAAUUCUUGCUGAUAUAAUACAAAACAGCACAUUGGGAGAAGCAGAGAUUGAAC | 0.267 ratio
GCCUGUGAGAAUUACAAGAAGAUCAAGUCCCCCAUCAAAAUGGCGGAGAAGGCAAAGCAAAUUUAUGAAGAAUUCAUCCAGACAGAGGCCCCUAAAGAGGUGAACAUUGACCACUUCACU | 0.283 ratio
CCAUCACAGAUUUCAGUAAUGCAGCAGUUGGAGGAUGGUGGCCCUGACCCACUUGUAUUUGUUUUAAAUGCAAAUUUGUUGUCAAUGGUUAAAAUUGUAAAUUAUGUGAACAGGAAGUGC | 0.262 ratio
UCAGAUGAACAAGAAGAUGAAGAUGCCAUCGUCAACAGGAUUUCGUUGUUUUUGAGCACGUUCACUCUCGCAGUGUCAGCUGGGGCUGUUUUGCUUUUACCCUUCUCAAUCAUCAGCAAU | 0.0692 ratio

Other studies, line by line
Sequence | target | test | test system | setting | how to read | endpoint | result
TGMHDAHPHWWHMTV | UDP-N-acetylglucosamine--peptide N-acetylglucosaminyltransferase 110 kDa subunit (OGT, Homo sapiens, UniProt O15294) | binding, phage display NGS | peptide | concentration not given | reference: input library | enrichment fold change | 9.8
